Measured values pooled from the literature.
Lines come from different studies, so protocols differ.

test	test system	conditions	how to read	retention time [min]	SMILES
UPLC	TFA water/acetonitrile gradient		longer = more hydrophobic	2.36	CC[C@H](C)[C@H](NC(=O)CN)C(=O)N[C@@H](CCCCN)C(=O)N[C@@H](CCCCN)C(=O)N[C@@H](Cc1ccccc1)C(=O)N[C@@H](CC(C)C)C(=O)N[C@@H](CCCCN)C(=O)N[C@@H](CO)C(=O)N[C@]1(C)CCCCCCC=CCCC[C@@](C)(C(=O)N[C@@H](CCCCN)C(N)=O)NC(=O)[C@H](C)NC(=O)[C@H](CCCCN)NC(=O)[C@H](C(C)C)NC(=O)[C@H](Cc2ccccc2)NC(=O)[C@H](CCCCN)NC(=O)[C@H](CCCCN)NC1=O
HPLC C18 column				12.1	CCCC[C@H](NC(=O)[C@]1(C)CCCC=CCCC[C@](C)(NC(=O)[C@H](C)NC(=O)[C@H](CCCCN)NC(=O)CNC(=O)[C@H](Cc2ccccc2)NC(=O)[C@H](CCCCN)NC(=O)[C@H](CCCCN)NC(=O)[C@H](C)NC(=O)[C@H](CO)NC(=O)[C@H](Cc2c[nH]cn2)NC(=O)[C@H](CC(C)C)NC(=O)[C@H](Cc2ccccc2)NC(=O)[C@H](CCCCN)NC(=O)CNC(=O)[C@@H](NC(=O)CN)[C@@H](C)CC)C(=O)N[C@@H](C(C)C)C(=O)NCC(=O)N[C@@H](CCC(=O)O)C(=O)N1)C(=O)N[C@@H](CC(N)=O)C(=O)N[C@@H](CO)C(N)=O
RP-HPLC C18				11.4	CC(C)C[C@H](N)C(=O)N[C@@H](CC(N)=O)C(=O)N[C@@H](CCC(N)=O)C(=O)N[C@@H](CCC(N)=O)C(=O)N[C@@H](CC(N)=O)C(=O)N[C@@H](Cc1ccc(O)cc1)C(=O)O
UPLC	TFA water/acetonitrile gradient		longer = more hydrophobic	2.6	CC[C@H](C)[C@H](NC(=O)CN)C(=O)N[C@@H](CCCCN)C(=O)N[C@@H](CCCCN)C(=O)N[C@@H](Cc1ccccc1)C(=O)N[C@@H](CC(C)C)C(=O)N[C@@H](CCCCN)C(=O)N[C@]1(C)CCCCCCC=CCCC[C@@](C)(C(=O)N[C@@H](Cc2ccccc2)C(=O)N[C@@H](CCCCN)C(N)=O)NC(=O)[C@H](CCCCN)NC(=O)[C@H](C(C)C)NC(=O)[C@H](Cc2ccccc2)NC(=O)[C@H](CCCCN)NC(=O)[C@H](CCCCN)NC(=O)[C@H](C)NC1=O
reversed-phase HPLC (C18)		water/acetonitrile TFA gradient		16.1	CCCC(=O)N[C@@H](CCCCN)C(=O)N[C@@H](CCCCN)C(=O)N[C@@H](C)C(=O)N[C@@H](CC(C)C)C(=O)N[C@@H](CCCCN)C(=O)N[C@@H](CC(C)C)C(=O)N[C@@H](C)C(=O)N[C@@H](CCCCN)C(=O)N[C@@H](CCCCN)C(=O)N1CCC[C@H]1C(=O)N[C@@H](CC(C)C)C(=O)N[C@@H](CCCCN)C(=O)N[C@@H](CC(C)C)C(=O)N[C@@H](CC(C)C)C(=O)N[C@@H](CCCCN)C(N)=O
HPLC C18 column				12.3	CC[C@H](C)[C@H](NC(=O)CN)C(=O)NCC(=O)N[C@@H](CCCCN)C(=O)N[C@@H](Cc1ccccc1)C(=O)N[C@@H](CC(C)C)C(=O)N[C@@H](Cc1c[nH]cn1)C(=O)N[C@@H](CO)C(=O)N[C@@H](C)C(=O)N[C@@H](CCCCN)C(=O)N[C@@H](CCCCN)C(=O)N[C@@H](Cc1ccccc1)C(=O)NCC(=O)N[C@@H](CCCCN)C(=O)N[C@@H](C)C(=O)N[C@@H](Cc1ccccc1)C(=O)N[C@@]1(C)CCCC=CCCC[C@@](C)(C(=O)N[C@@H](CC(N)=O)C(=O)N[C@@H](CO)C(N)=O)NC(=O)[C@H]([C@@H](C)CC)NC(=O)[C@H](CCC(=O)O)NC(=O)CNC1=O
RP-HPLC C18				9.83	NC(=O)CC[C@H](NC(=O)[C@H](CCC(N)=O)NC(=O)[C@H](CC(N)=O)NC(=O)[C@@H](N)CC(N)=O)C(=O)N[C@@H](CC(N)=O)C(=O)N[C@@H](Cc1ccc(O)cc1)C(=O)O
RP-HPLC		C18 column		14.4	CSCC[C@H](NC(=O)[C@H](Cc1ccccc1)NC(=O)CNC(=O)[C@H](CCCCN)NC(=O)[C@H](CCCCN)NC(=O)[C@@H](N)CCC(=O)O)C(=O)N[C@@H](CCC(=O)O)C(=O)N[C@@H](CCCCN)C(=O)N[C@@H](CC(C)C)C(=O)N[C@@H](CCCCN)C(=O)N[C@@H](CCC(=O)O)C(=O)N[C@@H](CCCCN)C(=O)N[C@@H](CC(C)C)C(=O)N1CCC[C@H]1C(=O)NCC(N)=O
UPLC	TFA water/acetonitrile gradient		longer = more hydrophobic	2.1	CC[C@H](C)[C@H](NC(=O)CN)C(=O)N[C@@H](CCCNC(=N)N)C(=O)N[C@@H](CCCNC(=N)N)C(=O)N[C@@H](Cc1ccccc1)C(=O)N[C@@H](CC(C)C)C(=O)N[C@@H](CCCNC(=N)N)C(=O)N[C@@H](CO)C(=O)N[C@@H](C)C(=O)N[C@@H](CCCNC(=N)N)C(=O)N[C@@H](CCCNC(=N)N)C(=O)N[C@@H](Cc1ccccc1)C(=O)N[C@H](C(=O)N[C@@H](CCCNC(=N)N)C(=O)N[C@@H](C)C(=O)N[C@@H](Cc1ccccc1)C(=O)N[C@@H](CCCNC(=N)N)C(N)=O)C(C)C
RP-HPLC C18				17.6	CC[C@H](C)[C@H](NC(=O)[C@H](CC(N)=O)NC(=O)[C@@H](N)CC(C)C)C(=O)N[C@@H](CCC(N)=O)C(=O)N[C@@H](Cc1c[nH]c2ccccc12)C(=O)N[C@@H](CC(C)C)C(=O)O
HPLC C18 column				13.3	CCCC[C@H](NC(=O)[C@@H](NC(=O)[C@H](CCC(=O)O)NC(=O)CNC(=O)[C@@H](NC(=O)[C@H](Cc1ccccc1)NC(=O)[C@]1(C)CCCC=CCCC[C@](C)(NC(=O)[C@H](CCCCN)NC(=O)[C@H](C)NC(=O)[C@H](CO)NC(=O)[C@H](Cc2c[nH]cn2)NC(=O)[C@H](CC(C)C)NC(=O)[C@H](Cc2ccccc2)NC(=O)[C@H](CCCCN)NC(=O)CNC(=O)[C@@H](NC(=O)CN)[C@@H](C)CC)C(=O)N[C@@H](Cc2ccccc2)C(=O)NCC(=O)N[C@@H](CCCCN)C(=O)N1)C(C)C)[C@@H](C)CC)C(=O)N[C@@H](CC(N)=O)C(=O)N[C@@H](CO)C(N)=O

Some of these lines once more:
test	test system	conditions	how to read	retention time [min]	SMILES
RP-HPLC C18				17.6	CC[C@H](C)[C@H](NC(=O)[C@H](CC(N)=O)NC(=O)[C@@H](N)CC(C)C)C(=O)N[C@@H](CCC(N)=O)C(=O)N[C@@H](Cc1c[nH]c2ccccc12)C(=O)N[C@@H](CC(C)C)C(=O)O
